Assay results collected from several papers.
Numbered parts are unrelated; each lists some results of a single study.

Series 1 — method: aptamer microarray, sandwich; form: DNA with 2'F-ANA; sample: in vitro; concentration: 200 nM; with: Cy3 exosite-II aptamer, 400 nM; direction: higher = stronger binding; strand: GGTTGGTGTGGTTGG
Target: Prothrombin, mature alpha-thrombin (F2, Homo sapiens, UniProt P00734)
Setting: whole 15-mer aptamer, many near background
Modification	mean fluorescence intensity [a.u.]
2'F-ANA at 1 2 3 6 7 8 9 10 13	65.1
2'F-ANA at 1 2 3 8 10	67.6
2'F-ANA at 2 3 5 6 7 11 12	155
2'F-ANA at 1 5 9 12 13 14 15	45.2
2'F-ANA at 1 4 5 6	57.6
2'F-ANA at 1 4 5 6 10 11 12 13 14 15	49.1
2'F-ANA at 3 4 6 7 11 12 13 14 15	299
2'F-ANA at 3 4 7 8 12 15	1100
2'F-ANA at 1 4 5 6 8 9 11 14	49.4
2'F-ANA at 5 6 10 11 12 13	47.3
2'F-ANA at 2 3 4 7 8 10 11 12 13	284
2'F-ANA at 1 3 5 6 7 9 10 11 12	49
2'F-ANA at 1 2 3 5 7 8 9 10 11 13	51.2
2'F-ANA at 3 4 5 6 7 8 9 12 14 15	63.3
2'F-ANA at 3 4 5 6 7 8 10 12 13 14 15	53.2
2'F-ANA at 1 5 6 7 9 11 12 14	43.8
2'F-ANA at 2 3 5 7 8 12 13 14 15	64
2'F-ANA at 3 6 8 9 11 12 15	1030
2'F-ANA at 1 4 6 8 9 10 11 13	111
2'F-ANA at 2 7 9 12 13 14	162
2'F-ANA at 8 9 10 13 14 15	95.7
2'F-ANA at 2 3 4 7 9 10 11 12 14 15	204
2'F-ANA at 3 5 7 11 12 13 15	167

Series 2 — method: universal PBM; form: double-stranded DNA, one strand shown; sample: in vitro; concentration: not given; direction: higher = stronger binding
Target: Sal-like protein 4, full length isoform B (SALL4, Homo sapiens, UniProt Q9UJQ4-2, residues 1-616)
Setting: 8-mer, flanks averaged, mean of replicates
Strand	E-score
CCGCTCGC	-0.297
CAGGAAGA	-0.166
ACCCTCGC	-0.221
CAAGTTTA	0.0909
CACGTAGA	-0.148
AAGGTGAG	-0.179
GGTGACTA	-0.0539
GATGACCC	-0.0511
ATGGAAAA	0.257
AACACTCA	-0.0213
TCTCAGCA	-0.125
AAGCAAGC	-0.0425
GCATCAGA	0.143
AATATAGG	0.286
ATCACTAC	0.141
AGGGAATC	-0.15
CAAAGAGC	-0.176
AGTCAACC	-0.17
ACGCTGCA	-0.118
ATTATAGC	0.216
AGGGAGCC	-0.389
CTACGAGC	-0.211
CCAGGCGG	-0.247

Series 3 — target: UBE2N UBC core domain (UniProt P61088); method: yeast two-hybrid; sample: yeast; setting: mostly zero background; relative to: not given; direction: higher = stronger interaction
B1: MARCHF1 RING domain (UniProt Q8TCQ1); chain TAPRSQSRLSVCPSTQDICRICHCEGDEESPLITPCRCTGTLRFVHQSCLHQWIKSSDTRCCELCKYDFIMETKLKPLRKWE
B2: TRIM41 RING domain (UniProt Q8WV44); chain PVQTLQEEAVCAICLDYFTDPVSIGCGHNFCRVCVTQLWGGEDEEDRDELDREEEEEDGEEE
B3: ZNRF4 RING domain (UniProt Q8WWF5); chain VRTFTWHNDLCAICLDEYEEGDQLKILPCSHTYHCKCIDPWFSQAPRRSCPVCKQSVAATEDSF
B4: RNF103 RING domain (UniProt O00237); chain WPADMLHCTECVVCLENFENGCLLMGLPCGHVFHQNCIVMWLAGGRHCCPVCRWPSYKKKQPY
B5: MID2 RING domain (UniProt Q9UJV3); chain KMETLESELTCPICLELFEDPLLLPCAHSLCFSCAHRILVSSCSSGESIEPITAFQCPTCRYVISLNHRGL
B6: CNOT4 RING domain (UniProt O95628); chain MSRSPDAKEDPVECPLCMEPLEIDDINFFPCTCGYQICRFCWHRIRTDENGLCPACRKPYPED
B7: BFAR RING domain (UniProt Q9NZS9); chain GPQISVSEFSCHCCYDILVNPTTLNCGHSFCRHCLALWWASSKKTECPECREKWEGFPKVS
B8: RNF186 RING domain (UniProt Q9NXI6); chain HSGSTECDLECLVCREPYSCPRLPKLLACQHAFCAICLKLLLCVQDNTWSITCPLCRKVTAVPGGLI
B9: ARIH2 RING domain (UniProt O95376); chain HVPTSHPPHHCAVCMQFVRKENLLSLACQHQFCRSCWEQHCSVLVKDGVGVGVSCMAQDCPLRTPEDFVF
Construct (chain): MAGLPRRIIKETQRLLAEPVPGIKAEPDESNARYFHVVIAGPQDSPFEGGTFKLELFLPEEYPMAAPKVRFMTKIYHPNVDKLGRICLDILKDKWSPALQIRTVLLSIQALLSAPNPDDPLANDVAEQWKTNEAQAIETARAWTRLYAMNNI
Sequence	lacZ reporter activity
B1 (MARCHF1 RING domain)	0
B2 (TRIM41 RING domain)	0
B3 (ZNRF4 RING domain)	9660
B4 (RNF103 RING domain)	16800
ASEEEFQFLRCQQCQAEAKCPKLLPCLHTLCSGCLEASGMQCPICQAPWPLGADTP (PML RING domain (UniProt P29590))	0
B5 (MID2 RING domain)	7210
B6 (CNOT4 RING domain)	10300
FAEQPSVKLCCQLCCSVFKDPVITTCGHTFCRRCALKSEKCPVDNVKLTVVVNNI (TRAF7 RING domain (UniProt Q6Q0C0))	0
B7 (BFAR RING domain)	0
ASPKIFQKTKCSICNSALELPSVHFLCGHSFHQHCFESYSESDADCPTCLPENRKVMDMI (VPS11 RING domain (UniProt Q9H270))	0
B8 (RNF186 RING domain)	0
B9 (ARIH2 RING domain)	0

Series 4 — method: RNA Bind-n-Seq; form: RNA; sample: in vitro; concentration: 365 nM; relative to: no-protein control; direction: higher = stronger binding
Target: RNA binding protein fox-1 homolog 2, RRM domain, GST-SBP tag (RBFOX2, Homo sapiens, UniProt O43251-10, residues 100-194)
Setting: natural RNA segment, single round, ends assumed
Constant ends, left off below: GGGAGUUCUACAGUCCGACGAUC … UGGAAUUCUCGGGUGCCAA
Construct (chain): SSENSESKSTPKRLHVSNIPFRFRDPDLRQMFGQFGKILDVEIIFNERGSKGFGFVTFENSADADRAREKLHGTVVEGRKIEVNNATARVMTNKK
Strand	RBNS enrichment (R)
UGUUGCCACAGUUGGGAGAUUUCUUCUUAAUCCUGAUUUUCUUGGUAAGCUUUUUUACUUUAUUAUCUCUAUAAUUUAUUAUCUCUAUCCAUAUUUGUGGAUCGGGUAGU	0.438
UCUUGCAUAGUUAGAAUUAAGCGUUUGUCCAUCUCUAGAUAACAUUGAAAAGUUUGAGUGUUACAGGCUCUAAAGUGCAAUGGAGAACAAUUGCUUAGGAGGAGGAAGGG	0.748
GAUCCAUGGAAUAAUAUGUAAUUCUUGUUUUCCUUGUCUUUUAGUCCAGUUUUUCUUUUUCCCUCUCAUAUAUUUGUAACCUGGGUCCUAAACUGACUGAAGAGUUUGUC	0.28
UCCAAGAAAGGGUCAUUUCAGACGCAGCCCUGCUUGGGCUAUUCAAUCUUAGGGUGUCUAUCCACGUCUGGCUGUGCCAAAUGGUCUGGCAGCUGGUUUUGGCAUCCCCA	0.376
AGCGUGGCAUGCAGGUGUCUUUGCUGUGUUUUUCUCCACUUCUAAAUGGUUCCUGGUUCCUUUCUUCCUCGUUUGUUACUUUAGAGCAAGUUUGCCCAUAGUCUUGAAUG	0.647
UUUCUUGUCACAUGAUUUCUUUUCUUGAUGGAUGAAAAAUAUGAAAGGAAACUUUUAUAUCUGUUGCCUAGUUUUGUACAUGGAUCUCAUUUUACAAGAGAAUCUCUCUG	0.292
UGCCCCUGAAGCCUGGAUCAUUCGUCUUCUCCUUUACCCACCCCUAAACCCCUGAUGCUGGUUAGGAACUUCUCACCCCAACACGUGUCUUAAGUAAGGCAGGGCAAGGC	0.404
CUGAGGUAUGUUUAAUCUAGGCAGGUACGUUUAAGGAUAUUUUGAUCUAUUUAUAAUGAAUUCACAAUUUAUGCCUAUAAAUUUCAGAUGAUUUAAAAUUUUAAACCUGU	0.525
ACAUACUGGAAUAUGUUUUAACAUAUGCCCCACCAUCCUGACUCACACGGAAGCACGGGUCUCUUCUCAAUCUUUGCUGCAUUUGGAAAAUGUUCCCUCCCAUCUCAGGC	0.308
UCAGUAAUGCCUGCCAGCAGCACCUUUAAUUUCAGCUGGUGGCCUGUGAUGGGUUCUGUUUACCUUUUGCAACAUUUUAUAGCUUGUUUAGUGACUAGUGUGUAGUGAGU	0.858
CUAGGACAAGGAAUGCUUCUUGAUUCCAUAGCUCUGACUAUAAUGACCCAGGAGAGAGGUGCCCCUUGUGGGAGUUCCAUUCUGUGGCAUGCAACUGAGCAGGGUUAGGG	3.85
AUGUCUCUGUCUUAUCAAUAAUGAGGCUUAAAAAAUACUGGAUUUGAAUGGCUGCCGUUUUUUCAAAGCAAUAUGAAUUUGAUGAGUUUGUUUUAUGCCAUUAGGUGGCG	1.32

For quick reference, copied from above (series 2):
Strand	E-score
CAAGTTTA	0.0909
ACCCTCGC	-0.221
AAGGTGAG	-0.179
ATGGAAAA	0.257
AAGCAAGC	-0.0425
CCAGGCGG	-0.247
CCGCTCGC	-0.297
